Experimental data collected from several papers.
Parts stem from different laboratories: compare values within a part only. Values joined by “and” are separate records of one study, mostly repeats; a detail may differ.
Sequence of UniProt Q06187 (whole entry, looked up): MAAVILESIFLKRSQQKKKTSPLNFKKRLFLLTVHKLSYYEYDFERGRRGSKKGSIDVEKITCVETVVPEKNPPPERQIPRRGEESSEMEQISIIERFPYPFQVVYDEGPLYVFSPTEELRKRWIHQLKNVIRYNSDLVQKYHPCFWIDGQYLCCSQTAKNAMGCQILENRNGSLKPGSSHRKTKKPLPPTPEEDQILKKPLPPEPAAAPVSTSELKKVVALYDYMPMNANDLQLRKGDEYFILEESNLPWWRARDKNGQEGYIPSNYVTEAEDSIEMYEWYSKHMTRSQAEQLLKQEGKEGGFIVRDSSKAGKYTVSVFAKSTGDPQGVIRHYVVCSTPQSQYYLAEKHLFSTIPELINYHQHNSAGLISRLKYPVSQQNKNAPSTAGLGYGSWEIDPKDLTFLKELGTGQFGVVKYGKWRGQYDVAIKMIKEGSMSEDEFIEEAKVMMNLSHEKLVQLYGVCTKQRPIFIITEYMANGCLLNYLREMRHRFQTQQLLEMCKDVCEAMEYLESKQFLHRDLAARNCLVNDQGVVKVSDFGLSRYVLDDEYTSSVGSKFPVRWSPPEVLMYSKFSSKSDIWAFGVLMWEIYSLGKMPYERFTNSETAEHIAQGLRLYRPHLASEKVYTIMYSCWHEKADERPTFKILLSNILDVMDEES
Sequence of UniProt Q05655 (whole entry, looked up): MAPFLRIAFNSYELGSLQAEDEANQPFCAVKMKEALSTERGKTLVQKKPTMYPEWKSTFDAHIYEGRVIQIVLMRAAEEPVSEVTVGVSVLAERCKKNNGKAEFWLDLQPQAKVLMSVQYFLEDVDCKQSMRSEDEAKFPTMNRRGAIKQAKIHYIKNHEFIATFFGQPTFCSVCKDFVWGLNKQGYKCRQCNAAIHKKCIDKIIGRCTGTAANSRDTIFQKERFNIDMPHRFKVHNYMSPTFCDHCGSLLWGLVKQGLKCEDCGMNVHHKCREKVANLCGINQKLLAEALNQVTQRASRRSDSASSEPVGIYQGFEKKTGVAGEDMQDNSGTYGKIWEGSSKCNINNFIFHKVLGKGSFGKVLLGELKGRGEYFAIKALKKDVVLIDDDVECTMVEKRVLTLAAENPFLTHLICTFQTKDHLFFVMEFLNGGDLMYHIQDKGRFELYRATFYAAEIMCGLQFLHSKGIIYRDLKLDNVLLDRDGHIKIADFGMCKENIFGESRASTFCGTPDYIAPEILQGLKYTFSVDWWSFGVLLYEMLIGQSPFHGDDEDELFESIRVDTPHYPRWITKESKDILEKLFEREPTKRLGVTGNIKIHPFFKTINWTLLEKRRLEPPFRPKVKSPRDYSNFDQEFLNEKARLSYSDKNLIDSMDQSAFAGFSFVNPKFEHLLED
Sequence of UniProt O94804 (whole entry, looked up): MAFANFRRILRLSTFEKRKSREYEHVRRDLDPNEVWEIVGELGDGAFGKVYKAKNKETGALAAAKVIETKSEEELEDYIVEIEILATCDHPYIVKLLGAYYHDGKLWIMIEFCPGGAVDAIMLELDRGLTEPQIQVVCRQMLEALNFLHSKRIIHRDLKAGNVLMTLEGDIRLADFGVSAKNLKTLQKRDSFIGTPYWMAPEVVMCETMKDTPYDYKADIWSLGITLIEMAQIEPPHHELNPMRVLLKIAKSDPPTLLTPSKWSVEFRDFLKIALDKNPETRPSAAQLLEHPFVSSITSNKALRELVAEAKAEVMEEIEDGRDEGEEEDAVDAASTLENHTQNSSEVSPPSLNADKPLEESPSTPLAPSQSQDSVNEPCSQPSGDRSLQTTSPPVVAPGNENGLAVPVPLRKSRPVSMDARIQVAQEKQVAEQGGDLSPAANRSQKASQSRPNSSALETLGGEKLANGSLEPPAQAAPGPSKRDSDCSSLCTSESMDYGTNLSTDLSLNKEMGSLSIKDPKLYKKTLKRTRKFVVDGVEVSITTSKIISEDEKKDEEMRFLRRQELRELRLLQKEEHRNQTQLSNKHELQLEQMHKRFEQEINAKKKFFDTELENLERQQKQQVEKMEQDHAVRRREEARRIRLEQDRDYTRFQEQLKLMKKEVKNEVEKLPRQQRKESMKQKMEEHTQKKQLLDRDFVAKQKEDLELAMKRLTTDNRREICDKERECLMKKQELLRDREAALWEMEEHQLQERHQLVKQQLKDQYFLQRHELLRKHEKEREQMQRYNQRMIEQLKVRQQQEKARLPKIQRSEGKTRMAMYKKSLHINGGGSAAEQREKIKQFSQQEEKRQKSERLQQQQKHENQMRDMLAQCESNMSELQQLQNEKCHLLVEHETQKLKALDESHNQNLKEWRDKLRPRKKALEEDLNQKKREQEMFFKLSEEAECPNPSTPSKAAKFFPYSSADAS
Sequence of UniProt P33981 (whole entry, looked up): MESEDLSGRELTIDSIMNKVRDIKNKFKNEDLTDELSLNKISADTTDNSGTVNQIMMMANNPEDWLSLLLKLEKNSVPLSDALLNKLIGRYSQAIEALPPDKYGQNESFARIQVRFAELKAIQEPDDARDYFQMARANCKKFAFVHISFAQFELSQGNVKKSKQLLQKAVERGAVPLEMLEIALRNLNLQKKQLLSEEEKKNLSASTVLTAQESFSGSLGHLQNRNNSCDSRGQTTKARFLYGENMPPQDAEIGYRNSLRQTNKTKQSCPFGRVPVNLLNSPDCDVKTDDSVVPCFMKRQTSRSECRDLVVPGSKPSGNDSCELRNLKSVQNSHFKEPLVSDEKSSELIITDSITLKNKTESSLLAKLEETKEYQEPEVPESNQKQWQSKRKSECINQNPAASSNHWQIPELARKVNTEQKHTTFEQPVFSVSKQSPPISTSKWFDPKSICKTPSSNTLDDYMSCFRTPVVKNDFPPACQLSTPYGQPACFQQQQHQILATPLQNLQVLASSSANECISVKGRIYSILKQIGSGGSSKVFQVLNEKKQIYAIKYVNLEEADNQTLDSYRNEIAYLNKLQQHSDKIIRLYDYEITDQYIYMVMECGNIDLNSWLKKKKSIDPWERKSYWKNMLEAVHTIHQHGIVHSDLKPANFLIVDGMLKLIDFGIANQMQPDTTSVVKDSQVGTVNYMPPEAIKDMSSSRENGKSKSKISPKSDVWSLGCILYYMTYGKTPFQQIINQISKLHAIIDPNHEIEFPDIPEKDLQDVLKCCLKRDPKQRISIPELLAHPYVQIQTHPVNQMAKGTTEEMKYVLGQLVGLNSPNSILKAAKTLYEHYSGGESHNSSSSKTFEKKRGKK
Sequence of UniProt P29597 (whole entry, looked up): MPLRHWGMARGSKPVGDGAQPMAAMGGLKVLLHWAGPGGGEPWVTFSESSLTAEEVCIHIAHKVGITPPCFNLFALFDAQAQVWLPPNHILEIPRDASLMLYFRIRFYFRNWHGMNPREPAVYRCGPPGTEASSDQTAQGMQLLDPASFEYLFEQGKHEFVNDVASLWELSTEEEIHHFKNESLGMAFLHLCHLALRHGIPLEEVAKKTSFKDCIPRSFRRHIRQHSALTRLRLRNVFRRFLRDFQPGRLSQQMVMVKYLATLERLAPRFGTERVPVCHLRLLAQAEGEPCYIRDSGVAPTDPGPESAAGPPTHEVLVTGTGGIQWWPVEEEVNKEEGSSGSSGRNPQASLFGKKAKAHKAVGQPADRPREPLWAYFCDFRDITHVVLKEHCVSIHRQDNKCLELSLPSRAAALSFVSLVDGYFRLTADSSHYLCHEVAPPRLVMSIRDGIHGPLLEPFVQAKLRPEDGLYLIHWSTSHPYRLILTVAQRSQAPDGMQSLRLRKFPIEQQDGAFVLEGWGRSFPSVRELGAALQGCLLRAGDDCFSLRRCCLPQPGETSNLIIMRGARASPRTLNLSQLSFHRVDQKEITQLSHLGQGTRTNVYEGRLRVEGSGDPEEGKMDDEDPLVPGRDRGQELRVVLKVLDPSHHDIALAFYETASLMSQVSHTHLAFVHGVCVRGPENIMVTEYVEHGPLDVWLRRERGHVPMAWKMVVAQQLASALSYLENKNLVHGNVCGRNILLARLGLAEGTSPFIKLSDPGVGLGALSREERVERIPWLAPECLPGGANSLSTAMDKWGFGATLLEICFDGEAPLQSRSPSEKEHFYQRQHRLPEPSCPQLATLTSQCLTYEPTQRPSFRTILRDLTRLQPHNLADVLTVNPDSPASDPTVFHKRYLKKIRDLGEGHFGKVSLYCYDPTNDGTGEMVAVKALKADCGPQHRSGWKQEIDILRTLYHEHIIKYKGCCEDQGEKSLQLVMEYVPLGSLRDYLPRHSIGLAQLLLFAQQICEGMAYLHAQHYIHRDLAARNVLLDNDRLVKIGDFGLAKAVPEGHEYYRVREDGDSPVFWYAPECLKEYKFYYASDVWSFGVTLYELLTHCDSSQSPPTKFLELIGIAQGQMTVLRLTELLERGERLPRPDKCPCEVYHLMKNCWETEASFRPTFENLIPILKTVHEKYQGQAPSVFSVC
Sequence of UniProt Q9HBH9 (whole entry, looked up): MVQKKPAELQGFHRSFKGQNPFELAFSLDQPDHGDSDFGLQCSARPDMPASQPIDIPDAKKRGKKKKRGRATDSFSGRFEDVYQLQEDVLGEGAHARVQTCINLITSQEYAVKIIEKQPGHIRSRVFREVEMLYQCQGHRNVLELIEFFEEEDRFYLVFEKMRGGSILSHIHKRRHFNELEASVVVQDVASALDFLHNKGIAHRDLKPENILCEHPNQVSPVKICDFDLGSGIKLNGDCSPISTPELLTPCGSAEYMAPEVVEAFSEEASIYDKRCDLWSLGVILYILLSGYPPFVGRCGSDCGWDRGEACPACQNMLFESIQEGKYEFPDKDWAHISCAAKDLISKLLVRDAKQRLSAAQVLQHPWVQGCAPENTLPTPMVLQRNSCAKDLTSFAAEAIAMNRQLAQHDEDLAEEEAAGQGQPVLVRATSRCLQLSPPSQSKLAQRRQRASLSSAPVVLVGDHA

Study 1
Host: mouse
Matrix: microsomes or S9
Concentration: 2 µM
Time: 0.5 h
SMILES | remaining compound
O=C(c1nccc2ccccc12)N1CCc2cc(-c3ccno3)ccc21 | 1.81%
O=c1ccc(-c2ccc(S(=O)(=O)NCCCN3CCN(c4ccccc4)CC3)s2)n[nH]1 | 66.3%
Cc1cc(C)n(CCCN(C)CC2(O)CNCCOC2)n1 (stereo not shown) | 64.5%
Nc1cc(Cl)c(Oc2ccc(Cl)nn2)c(Cl)c1 | 21.6%
COc1cc(=O)n(C)cc1C(=O)NCCCNC(=O)OC(C)(C)C | > 99%
CN(CCc1ccccc1)c1ncc(-c2ncc[nH]2)c(-c2ccc(F)cc2)n1 | 0.066%
CC(C)(C)OC(=O)N[C@@H](CC(=O)N1Cc2ccccc2CN1C(=O)OCc1ccccc1)Cc1cc(F)c(F)cc1F | < 1%

Study 2
Structure (SMILES): Cc1nc(C2CCN(C(=O)c3ccc(OC(F)(F)F)cc3N)CC2)c2ncc(N3CCN(C)CC3)cc2n1
Observed: cell-free assay
Method: competition with immobilised ligand
Concentration: 1 µM
target | remaining binding
FLT3 (Homo sapiens, UniProt P36888, D835V/ITD) | 86%
TTK (Homo sapiens, UniProt P33981) | 100%
EGFR (Homo sapiens, UniProt P00533, L858R) | 89%
STK10 (Homo sapiens, UniProt O94804) | 96%
Receptor-type tyrosine-protein kinase FLT3, autoinhibited (FLT3, Homo sapiens, UniProt P36888) | 83%
Tyrosine-protein kinase ABL1, non-phosphorylated (ABL1, Homo sapiens, UniProt P00519, F317L) | 96%
FLT3 (Homo sapiens, UniProt P36888, D835H) | 69%
PIK3CA (Homo sapiens, UniProt P42336, Q546K) | 88%
Non-receptor tyrosine-protein kinase TYK2, JH1 (TYK2, Homo sapiens, UniProt P29597) | 100%
HASPIN (Homo sapiens, UniProt Q8TF76) | 100%

Study 3
Structure (SMILES): c1ccc(Oc2ccc(Nc3c4c(nc5ccccc35)CCC4)cc2)cc1
Organism: Leishmania donovani
Method: cidal or static mode
Strain: DD8
Matrix: promastigotes
Concentration: concentration not given
time | promastigote count
48 h | 4.33e+06 and 4.37e+06
24 h | 1.24e+06
72 h | 9.76e+06 and 9.58e+06

Study 4
Compound: COc1cc2ncnc(N3CCN(C(=O)Nc4ccc(Oc5ccccc5)cc4)CC3)c2cc1OC
Observed: enzyme activity
Action: inhibitor
Concentration: 0.5 µM
Reference: control
target | remaining activity [%]
BTK (Homo sapiens, UniProt Q06187) | 87.8
PLK2 (Homo sapiens, UniProt Q9NYY3) | 105
MKNK2 (Homo sapiens, UniProt Q9HBH9) | 94.2
Cyclin-dependent kinase 9, with cyclin T1 (CDK9, Homo sapiens, UniProt P50750) | 97.3
LRRK2 (Homo sapiens, UniProt Q5S007) | 98.3
LYN (Homo sapiens, UniProt P07948) | 97.8
PRKCI (Homo sapiens, UniProt P41743) | 105
MAP2K6 (Homo sapiens, UniProt P52564) | 96
STK38 (Homo sapiens, UniProt Q15208) | 96.9
PRKCD (Homo sapiens, UniProt Q05655) | 84.3
MAP4K2 (Homo sapiens, UniProt Q12851) | 94.7

Excerpt of the above (study 2):
target | remaining binding
STK10 (Homo sapiens, UniProt O94804) | 96%
Receptor-type tyrosine-protein kinase FLT3, autoinhibited (FLT3, Homo sapiens, UniProt P36888) | 83%
Tyrosine-protein kinase ABL1, non-phosphorylated (ABL1, Homo sapiens, UniProt P00519, F317L) | 96%
FLT3 (Homo sapiens, UniProt P36888, D835H) | 69%
